Experimental data of several laboratories.
Protocols differ between the studies behind these lines. Numbers after ± are the reported error. ≈ marks a conversion by molar mass, not a printed value.

With `CC(=O)C1=C(O)C=C2Oc3c(C(C)=O)c(O)c(C)c(O)c3[C@@]2(C)C1=O` the MIC99 was 17.4 µM (≈ 5.99 µg/mL) (Candida tropicalis; broth microdilution; ATCC 750, fluconazole and amphotericin B resistant; 24 and 48 h).
For `Nc1nc(-c2ccccc2)nc2[nH]nc(Nc3ccc(F)cc3)c12`, the IC50 was 31.5 ± 7.89 µM (coxsackievirus B3; plaque formation, plaque reduction; HeLa, Nancy, resistant mutant I1207M).
`COC(=O)C1=CO[C@@H](OC(C)=O)[C@@H]2C(Cn3cc(CCCCN4C(=O)c5ccccc5C4=O)nn3)=CC[C@H]12` gave a viability of 60.5 ± 0.7% (SK-N-SH; neuroprotection, MTT; 0.3 µM, 24 h, together with: 250 µM H2O2).
For `N=C(N)NCCC[C@@H]1NC(=O)[C@H](CCCCNC(=O)CC[C@H](NC(=O)CCOCCOCCOCCOCCNC(=O)CC[C@H](NC(=O)CN2CCN(CC(=O)O)CCN(CC(=O)O)CCN(CC(=O)O)CC2)C(=O)NCCOCCOCCOCCOCCC(=O)N[C@@H](CCC(=O)NCCCC[C@@H]2NC(=O)[C@@H](Cc3ccccc3)NC(=O)[C@H](CC(=O)O)NC(=O)CNC(=O)[C@H](CCCNC(=N)N)NC2=O)C(=O)NCCCC[C@@H]2NC(=O)[C@@H](Cc3ccccc3)NC(=O)[C@H](CC(=O)O)NC(=O)CNC(=O)[C@H](CCCNC(=N)N)NC2=O)C(=O)NCCCC[C@@H]2NC(=O)[C@@H](Cc3ccccc3)NC(=O)[C@H](CC(=O)O)NC(=O)CNC(=O)[C@H](CCCNC(=N)N)NC2=O)NC(=O)[C@@H](Cc2ccccc2)NC(=O)[C@H](CC(=O)O)NC(=O)CNC1=O` [indium-111 labelled], the tissue uptake was 5.68 ± 0.66 %ID/g (female athymic nude mice, kidney; intravenous, 3 µCi, 4 h, U-87 MG glioma xenograft).
The antifeedant index of `C=CCc1ccc(OCC(=C)C)c(OC)c1` is reported as 56.7% (Spodoptera frugiperda; larvae; 250 µg/mL; relative to: untreated control).
`CC(=O)O[C@@H]1C[C@@H](C)O[C@H]2O[C@@H]3C[C@@H]4CC[C@@H]5[C@H](CC[C@]6(C)[C@@H](C7=CC(=O)OC7)CC[C@]56O)[C@@]4(C=O)C[C@H]3O[C@]21O` gave a viability effect of 90% (Schistosoma mansoni; microscopic viability score; adult worms; 1 µM, 72 h).
With `CCCCCCCCC(=O)NCc1ccc(O)c(OC)c1` the IC50 was 0.1 µg/mL (mAb 5-D8; antibody binding, indirect competitive ELISA; together with: coating antigen hapten 3-OVA).
`CC(C)C[C@@H]1NC(=O)[C@H](CCCCN)NC(=O)[C@H](C(C)C)NC(=O)[C@@H]2CCCN2C(=O)[C@@H](Cc2ccc(O)cc2)NC(=O)[C@H](CC(C)C)NC(=O)[C@H](CCCCN)NC(=O)[C@H](C(C)C)NC(=O)[C@H](CCCCN)NC(=O)[C@H](CC(C)C)NC(=O)[C@H](CCCCN)NC(=O)[C@@H]2CCCN2C(=O)[C@@H](Cc2ccc(O)cc2)NC(=O)[C@H](C(C)C)NC(=O)[C@H](CCCCN)NC1=O` — result for “MIC geometric mean”: 19.5 µg/mL (≈ 10.8 µM) (Gram-negative bacteria; 24 h, 7 strains).
`C=CCc1ccc(OCc2ccccc2)c(OC)c1` has an antifeedant index of 37.3% (Spodoptera frugiperda; larvae; 100 µg/mL; relative to: untreated control).
`COc1ccccc1-c1n[nH]c2nc(N[C@H]3CC[C@H](NS(=O)(=O)CC(C)C)CC3)ncc12`: “EC50 fold change” 1 (Leishmania donovani; promastigotes, LdBOB start clone; relative to: wild type).
`CCn1c2ccccc2c2cc(/C=N/NC(=O)Cn3ccc(=O)c4ccccc43)ccc21` has an inhibition of 21.4% (Rhizoctonia solani; microbial growth; 50 µg/mL).
`CCCCCCCC(=O)N[C@@H](CCCN)C(=O)N[C@@H](CCCN)C(=O)N[C@@H](CC(C)C)C(=O)N[C@@H](CC(C)C)C(=O)N[C@@H](CCCN)C(=O)N[C@@H](CCCN)C(=O)N[C@@H](CC(C)C)C(=O)N[C@@H](CCCN)C(=O)N[C@@H](CCCN)C(=O)N[C@@H](CC(C)C)C(N)=O` gave an MIC ratio of 4 (Staphylococcus aureus, Escherichia coli; relative to: S. aureus over E. coli).
With `CC1(C)CC[C@]2(CO)CC[C@]3(C)C(=CC[C@@H]4[C@@]5(C)CCCNC(C)(C)[C@@H]5CC[C@]43C)[C@@H]2C1` the selectivity index was less than 3 (Human cytomegalovirus; HFF, AD169; relative to: CC50 over EC50).
`CN[C@@H]1[C@H](O)[C@H](NC)[C@H]2O[C@]3(O)[C@H](O[C@@H]2[C@H]1O)O[C@H](C)C[C@@]3(O)CNCc1ccc(F)cc1` — result for “bacterial titre reduction”: greater than 3 log units (Streptococcus pneumoniae; D39x, mice, pneumonia model; 2.5 or 5 mg/kg, 48 h post infection).
Under “tissue uptake ratio”, `CCCC[C@H](NC(=O)CNC(=O)CNC(=O)c1ccc(NN)nc1)C(=O)N[C@H]1CC(=O)NCCCC[C@@H](C(N)=O)NC(=O)[C@H](Cc2c[nH]c3ccccc23)NC(=O)[C@H](CCCNC(=N)N)NC(=O)[C@@H](Cc2ccccc2)NC(=O)[C@H](Cc2c[nH]cn2)NC1=O` [technetium-99m labelled] is recorded as 4.67 (C57 mouse, B16/F1 melanoma-bearing; intravenous, 0.5 h; relative to: tumour over skin).
`CC(=O)O[C@@H]1C[C@@H](C)O[C@H]2O[C@@H]3C[C@@H]4CC[C@@H]5[C@H](CC[C@]6(C)[C@@H](C7=CC(=O)OC7)CC[C@]56O)[C@@]4(C)C[C@H]3O[C@]21O` gave a viability effect of 24.4% (Schistosoma mansoni; microscopic viability score; adult worms; 0.1 µM, 72 h).
`CC[C@H](C)[C@H](NC(=O)[C@H](CCCCN)NC(=O)[C@H](CCCCN)NC(=O)[C@H](CC(C)C)NC(=O)[C@H](CCCCN)NC(=O)[C@H](CCC(=O)O)NC(=O)[C@H](CCCCN)NC(=O)[C@@H](NC(=O)[C@H](CCCCN)NC(=O)[C@H](CC(N)=O)NC(=O)[C@H](CCCNC(=N)N)NC(=O)[C@H](Cc1ccccc1)NC(=O)[C@H](CCCCN)NC(=O)[C@H](CCCNC(=N)N)NC(=O)[C@H](CC(C)C)NC(=O)[C@H](CCCNC(=N)N)NC(=O)[C@H](CCCCN)NC(=O)[C@H](CCCNC(=N)N)NC(=O)[C@H](CC(C)C)NC(=O)CN)[C@@H](C)CC)C(=O)NCC(=O)N[C@@H](CCC(N)=O)C(=O)N[C@@H](CCCCN)C(=O)N[C@H](C(=O)N[C@@H](CCC(N)=O)C(=O)NCC(=O)N[C@@H](Cc1ccccc1)C(=O)N[C@H](C(=O)N1CCC[C@H]1C(=O)N[C@@H](CCCCN)C(=O)N[C@@H](CC(C)C)C(=O)N[C@@H](C)C(=O)N1CCC[C@H]1C(=O)N[C@@H](CCCNC(=N)N)C(=O)N[C@H](C(=O)N[C@@H](CC(=O)O)C(=O)N[C@@H](Cc1ccc(O)cc1)C(=O)O)[C@@H](C)O)C(C)C)[C@@H](C)CC` gave a lethal concentration of 1.8 µM (Alcaligenes faecalis; inhibition zone; CGMCC 1.184).
For `COC(=O)C1=CO[C@@H](C)[C@@H]2Cn3ccc4c5ccccc5nc-4c3C[C@H]12`, the resistance index was less than 1.4 (Plasmodium falciparum; parasite growth, [3H]-hypoxanthine incorporation; FCR3 drug-resistant; relative to: FCR3 over 3D7).
The LD50 of `C/C=C/c1ccc(OCc2ccccc2)c(OC)c1` is reported as 4250 mg/kg (Spodoptera frugiperda; insecticidal activity; larvae; topical).
`CCN(Cc1ccccc1)C(=O)CCc1nc(CN2CCN(C(=O)Cc3ccc(OC)c(OC)c3)CC2)no1` gave an activation V1/2 of -58.3 ± 1.72 mV (Potassium voltage-gated channel subfamily KQT member 5 (KCNQ5, Homo sapiens, UniProt Q9NR82); potassium current, whole-cell patch clamp; transfected cells; 1 µM).
The tracer uptake of `CN[C@](C)(C[18F])C(=O)O` is reported as 4 %ID/g (DU-145 tumour model; host not given, liver; 1 h, tumour-bearing).
For `N=C(N)NCCC[C@@H]1NC(=O)[C@H](CCCCNC(=O)CNC(=O)CNC(=O)CNC(=O)CC[C@H](NC(=O)CCOCCOCCOCCOCCNC(=O)CC[C@H](NC(=O)CN2CCN(CC(=O)O)CCN(CC(=O)O)CCN(CC(=O)O)CC2)C(=O)NCCOCCOCCOCCOCCC(=O)N[C@@H](CCC(=O)NCC(=O)NCC(=O)NCC(=O)NCCCC[C@@H]2NC(=O)[C@@H](Cc3ccccc3)NC(=O)[C@H](CC(=O)O)NC(=O)CNC(=O)[C@H](CCCNC(=N)N)NC2=O)C(=O)NCC(=O)NCC(=O)NCC(=O)NCCCC[C@@H]2NC(=O)[C@@H](Cc3ccccc3)NC(=O)[C@H](CC(=O)O)NC(=O)CNC(=O)[C@H](CCCNC(=N)N)NC2=O)C(=O)NCC(=O)NCC(=O)NCC(=O)NCCCC[C@@H]2NC(=O)[C@@H](Cc3ccccc3)NC(=O)[C@H](CC(=O)O)NC(=O)CNC(=O)[C@H](CCCNC(=N)N)NC2=O)NC(=O)[C@@H](Cc2ccccc2)NC(=O)[C@H](CC(=O)O)NC(=O)CNC1=O` [indium-111 labelled], “tumour to bone ratio” read 5.27 ± 1.35 (female athymic nude mouse; intravenous, 0.5 h, U-87 MG glioma xenograft; relative to: tumour over bone).
`CCC1c2cc(OC)c(O)cc2C(c2ccc(O)c(OC)c2)C1C` (stereo not shown) has an antifeedant index of 33.7% (Spodoptera frugiperda; larvae; 500 µg/mL; relative to: untreated control).
`CC(=O)OC1C(C)C(OC2CC3OCOC3C(C)O2)C=COC2(C)Oc3c(C)c(O)c4c(c3C2=O)C(=O)C=C(NC(=O)C(C)=CC=CC(C(C)OC(=O)C(C)(C)CC(=O)O)C(O)C(C)C(O)C1C)C4=O` (stereo not shown) — result for antibacterial activity: “active” (Providencia rettgeri; NCTC 7475; concentration not given).
`CC[C@H](C)[C@H](NC(=O)CN)C(=O)N[C@@H](Cc1c[nH]c2ccccc12)C(=O)N[C@@H](CCCCN)C(=O)N1CCC[C@H]1C(=O)N[C@H](C(=O)N[C@@H](Cc1ccccc1)C(=O)N[C@H](C(=O)N[C@@H](Cc1ccc(O)cc1)C(=O)N[C@@H](CC(C)C)C(=O)N[C@@H](C)C(=O)N[C@H](C(=O)N1CCC[C@H]1C(=O)N[C@H](C(=O)N[C@@H](Cc1c[nH]cn1)C(=O)N[C@@H](Cc1ccccc1)C(=O)N[C@@H](CCCCN)C(=O)N[C@@H](Cc1ccccc1)C(=O)O)[C@@H](C)CC)[C@@H](C)O)[C@@H](C)O)[C@@H](C)CC`: antibacterial activity “active” (Gram-negative bacteria; MIC; concentration not given).

For quick reference, copied from above:
`CC(C)C[C@@H]1NC(=O)[C@H](CCCCN)NC(=O)[C@H](C(C)C)NC(=O)[C@@H]2CCCN2C(=O)[C@@H](Cc2ccc(O)cc2)NC(=O)[C@H](CC(C)C)NC(=O)[C@H](CCCCN)NC(=O)[C@H](C(C)C)NC(=O)[C@H](CCCCN)NC(=O)[C@H](CC(C)C)NC(=O)[C@H](CCCCN)NC(=O)[C@@H]2CCCN2C(=O)[C@@H](Cc2ccc(O)cc2)NC(=O)[C@H](C(C)C)NC(=O)[C@H](CCCCN)NC1=O` — result for “MIC geometric mean”: 19.5 µg/mL (≈ 10.8 µM) (Gram-negative bacteria; 24 h, 7 strains).
`C=CCc1ccc(OCc2ccccc2)c(OC)c1` has an antifeedant index of 37.3% (Spodoptera frugiperda; larvae; 100 µg/mL; relative to: untreated control).
`COc1ccccc1-c1n[nH]c2nc(N[C@H]3CC[C@H](NS(=O)(=O)CC(C)C)CC3)ncc12`: “EC50 fold change” 1 (Leishmania donovani; promastigotes, LdBOB start clone; relative to: wild type).
